Assay results pooled from the literature.
Protocols differ between the studies behind these lines. Values joined by “and” are separate records of one study, mostly repeats; a detail may differ. Numbers after ± are the reported error.

Cc1cc(O)cc(C)c1C[C@H](NC(=O)[C@@H]1CCCN1C(=O)[C@H](CCCNC(=N)N)NC(=O)[C@H](CCCNC(=N)N)N(C)C(=O)CNC(=O)[C@@H](CO)NC(=O)CNC(=O)[C@H](Cc1cn(CCNC(=O)[C@H](Cc2ccc(O)cc2)NC(=O)[C@H](CC(C)C)NC(=O)C2OC2C(=O)O)nn1)NC(=O)CN1CCN(CC(=O)O)CCN(CC(=O)O)CCN(CC(=O)O)CC1)C(=O)N[C@H](C(=O)N[C@@H](CC(C)C)C(=O)O)C(C)(C)C (mixture of isomers)
fraction unbound (human): 0.884

O=C1Cc2cc(CCN3CCN(c4nsc5ccccc45)CC3)c(Cl)cc2N1
QTc interval (male Hartley guinea pig, anaesthetized; intravenous infusion, 1 mg/kg, 10 min infusion, post-infusion): 403 ± 0.4 ms

COc1cnc2cccc(N3CCc4c(cc(Cn5ccnc5C)cc4-c4cn(C)nc4C(F)(F)F)C3=O)c2c1
EC50 (OV-90; cell growth, inhibitor; 120 h): > 30 µM

C=CC(=O)Nc1cc2c(Nc3ccc(OCc4ccccn4)c(Cl)c3)ncnc2cc1OCCN1CCOCC1
IC50 (NCI-H2073 ASV knock-in; cell proliferation, CellTiter-Glo; 72 h, geometric mean): 0.0991 µM

CC(C)(C)c1nc(-c2cccc(NS(=O)(=O)c3c(F)cccc3F)c2F)c(-c2ccnc(N)n2)s1
late apoptotic cells (C13; annexin V/PI flow cytometry; concentration not given, 48 h; relative to: control subtracted): 4.2 ± 1.5%

N#Cc1ccc2c(c1)[C@H]1CCCN(C(=O)c3ccc4[nH]cnc4c3)[C@H]1C2
change from baseline (refers to: 1,5-anhydroglucitol; human; 80 mg once daily, day 28, adjusted mean): -0.51 mg/L

CCN1CCN(Cc2ccc(NC(=O)c3ccc(C)c(-c4ccc5nc(NC(=O)C6CC6)cn5c4)c3)cc2C(F)(F)F)CC1
phosphorylation (MHHCALL4 cells; Western blot, refers to: JAK2, STAT5, STAT3; concentration not given): inhibited

Cc1ccc(C(=O)N(CCCN)[C@@H](c2nc3cc(Cl)ccc3c(=O)n2Cc2ccccc2)C(C)C)cc1
inhibition (BT-16; cell viability, MTT; 10 µM, 72 h): 94.9%

O=C(CCCN1CCC(O)(c2ccc(Cl)cc2)CC1)c1ccc(F)cc1
QTc interval (male Hartley guinea pig, anaesthetized; intravenous, 1 mg/kg, baseline before infusion): 346 ± 0.5 ms

CC(C)C[C@H](NC(=O)C[C@H](O)[C@H](CC(C)C)NC(=O)[C@H](Cc1c[nH]cn1)NC(=O)CNC(=O)[C@@H](NC(=O)[C@H](C)NC(=O)[C@H](Cc1c[nH]c2ccccc12)NC(=O)[C@H](CCC(N)=O)NC(=O)[C@@H](Cc1ccccc1)NC(=O)COCCOCCNC(=O)CCC(C(=O)O)N1CCN(CC(=O)O)CCN(CC(=O)O)CC1)C(C)C)C(N)=O (some centres unmarked) [lutetium-177 labelled]
tissue uptake (BALB/c nu/nu mice, female, lumbar lymph node metastases; intravenous, 50 pmol, 24 h): 5 ± 3 %ID/g

C[C@@H](O)[C@@H](CO)NC(=O)[C@@H](CCCNC(=N)N)NC(=O)[C@@H]1CCCN1C(=O)[C@@H]1CSSC[C@H](NC(=O)[C@H](Cc2ccccc2)NC(=O)CN2CCN(CC(=O)O)CCN(CC(=O)O)CCN(CC(=O)O)CC2)C(=O)N[C@@H](Cc2ccc(O)cc2)C(=O)N[C@@H](Cc2ccccc2)C(=O)N[C@@H](CCC(N)=O)C(=O)N[C@@H](CC(N)=O)C(=O)N1 [gallium-68 labelled]
radiochemical purity (normal saline; 2 h, room temperature): > 99%

CCS(=O)(=O)Nc1ccc2c(c1)/C(=C(/Nc1ccc(CN3CCCCC3)cc1)c1ccccc1)C(=O)N2
inhibition (BT-16; cell viability, MTT; 10 µM, 72 h): 94%

CSc1cc(Oc2ccnc3[nH]c(=O)cnc23)ccc1NC(=O)Nc1cc(C(C)(C)C)nn1-c1ccccc1
phospho ratio (patient-derived cell line clone B; RPPA, refers to: phosphorylated HER3; human; 1 µM, 4 h; relative to: DMSO): 0.73

O=C(/C=C/C=C/C=C/C1CCCCC1)NC1=C[C@@](O)(/C=C/C=C/C=C/C(=O)NC2=C(O)CCC2=O)[C@@H]2O[C@@H]2C1=O
GI50 (NCI-H1437; cell growth, CellTiter-Glo; 78 h): 24 µM

CC(C)(c1ccc(O)cc1)c1ccc(O)cc1
cell cycle distribution (HepG2 spheroids; flow cytometry; concentration not given, 24 h): no effect

CCCCc1nc(Cl)c(CO)n1Cc1ccc(-c2ccccc2-c2nn[nH]n2)cc1
log2 fold change (human PBMC; RNA-seq, refers to: NEFH mRNA; 10 µg/mL, 24 h; relative to: untreated control): 2.21

Cn1cc(-c2ccc(-c3cncc(Cl)c3N3CCC4(CCNC4=O)CC3)cc2)cn1
log2 fold change (COLO 205; gene expression, microarray, refers to: GTF2IRD2 mRNA; concentration not given, 6 h; relative to: untreated cells): 5.68

Cc1cc(Nc2ncc(Cl)c(Nc3ccccc3S(=O)(=O)C(C)C)n2)c(OC(C)C)cc1C1CCNCC1
log2 fold change (CLB-BAR; phosphoproteomics LC-MS/MS, refers to: TNKS1BP1 phosphorylation; 200 nM, 60 min; relative to: untreated): -2.56

CO[C@@]12[C@H](COC(N)=O)C3=C(C(=O)C(C)=C(N)C3=O)N1C[C@@H]1N[C@@H]12
inhibition (BT-16; cell viability, MTT; 10 µM, 72 h): 92.9%

CCn1cc(-c2cc(Cn3ccoc3=N)cc3c2CCN([C@@H](C)c2cc(OC)ccn2)C3=O)c(C(F)(F)F)n1
EC50 (HCC1588; cell growth, inhibitor; 120 h): > 30 µM

Cc1cccc(-c2[nH]c(CNc3ccccc3F)nc2-c2ccc3ncnn3c2)n1
surface marker level (RPMI-8226; flow cytometry, refers to: CD220; concentration not given; relative to: comparator compound alone): 55%

CC(C)C[C@H](NC(=O)C[C@H](O)[C@H](CC(C)C)NC(=O)[C@H](Cc1c[nH]cn1)NC(=O)CNC(=O)[C@@H](NC(=O)[C@H](C)NC(=O)[C@H](Cc1c[nH]c2ccccc12)NC(=O)[C@H](CCC(N)=O)NC(=O)[C@@H](Cc1ccccc1)NC(=O)COCCOCCNC(=O)CCC(C(=O)O)N1CCN(CC(=O)O)CCN(CC(=O)O)CCN(CC(=O)O)CC1)C(C)C)C(N)=O (some centres unmarked) [lutetium-177 labelled]
tissue uptake (BALB/c nu/nu mice, carcass; 750 pmol, 1 h, together with: PA 300 µg): 3 ± 1 %ID

Cc1cc(O)cc(C)c1C[C@H](NC(=O)[C@@H]1CCCN1C(=O)[C@H](CCCNC(=N)N)NC(=O)[C@H](CCCNC(=N)N)N(C)C(=O)[C@@H](CCC(N)=O)NC(=O)[C@@H](CCC(N)=O)NC(=O)[C@@H](CCC(N)=O)NC(=O)[C@H](Cc1cn(CCNC(=O)[C@H](CC(C)C)NC(=O)[C@H](CC(C)C)NC(=O)C2OC2C(=O)O)nn1)NC(=O)CN1CCN(CC(=O)O)CCN(CC(=O)O)CCN(CC(=O)O)CC1)C(=O)N[C@H](C(=O)N[C@@H](CC(C)C)C(=O)O)C(C)(C)C (mixture of isomers)
fraction unbound (human): 0.927

CC[C@@]1(O)C(=O)OCc2c1cc1n(c2=O)Cc2cc3c(CN(C)C)c(O)ccc3nc2-1
inhibition (BT-16; cell viability, MTT; 10 µM, 72 h): 92.5%

CC(=O)O[C@@]12CO[C@@H]1C[C@H](O)[C@@]1(C)C(=O)[C@H](O)C3=C(C)[C@@H](OC(=O)[C@H](O)[C@@H](NC(=O)OC(C)(C)C)c4ccccc4)C[C@@](O)([C@@H](OC(=O)c4ccccc4)[C@H]21)C3(C)C
inhibition of cell growth (compound-sensitive VCaP-AI; trypan blue exclusion; 0.002 µM, 72 h): > 65%

CC(C)n1ncc2c(C(=O)NCC3(C)CNC3)cc(C3CC3)nc21
plaque area (enterovirus A71; Tainan/4643/1998; 0.003 µM): 93.8% and 97.8%

O=c1[nH]nc(OCCCc2ccc(Cl)cc2)c(NCc2cccnc2)c1Br
normalized enrichment score (HEK-293T; RNA-seq GSEA, refers to: Hallmark allograft rejection; concentration not given; direction not given): -1.45

COc1ccc(NC(=S)N/N=C/c2cccc3cc4ccccc4nc23)cc1
mitochondrial membrane potential (HeLa; TMRE flow cytometry; IC50, 48 h, unit not given, together with: N-acetylcysteine; relative to: DMSO control): 1.54 ± 2.36

O=C(C[C@@H](C(F)F)n1ccc(F)n1)N1CCC(O)(Cn2cnc3c(cnn3-c3ccc(F)cc3)c2=O)CC1
G2/M phase cells (CHP-212 resistant; PI flow cytometry; 0.3 µM, 24 h): 13.2%

A few entries again:
O=c1[nH]nc(OCCCc2ccc(Cl)cc2)c(NCc2cccnc2)c1Br
normalized enrichment score (HEK-293T; RNA-seq GSEA, refers to: Hallmark allograft rejection; concentration not given; direction not given): -1.45

COc1ccc(NC(=S)N/N=C/c2cccc3cc4ccccc4nc23)cc1
mitochondrial membrane potential (HeLa; TMRE flow cytometry; IC50, 48 h, unit not given, together with: N-acetylcysteine; relative to: DMSO control): 1.54 ± 2.36
